Measurements from different studies.
Protocols differ between the studies behind these lines. ± marks the error that the study gave.

Compound | tested on | assay | system | setting | how to read | quantity | result
C#CCN1C(=O)C(CC#C)(C(=O)OCC)Oc2ccccc21 (stereo not shown) | L02 | cell growth or viability, CCK-8 |  | 6.25 µM, 72 h |  | inhibition | 0.46%
COc1ccccc1-c1ccncc1C(=O)Nc1nnc(OCc2ccc(Cl)cc2)s1 | RPE-1 TP53-/- BRCA1-/- |  |  | 8 µM, average of 2 runs | relative to: untreated | colony survival | 25.8%
CCOC(=O)C1(Cc2ccccc2)Oc2cc(F)ccc2N(Cc2ccccc2)C1=O (stereo not shown) | L02 | cell growth or viability, CCK-8 |  | 100 µM, 72 h |  | inhibition | 1.77%
CC(C)[C@H](NC(=O)[C@H](CCCNC(=N)N)NC(=O)[C@@H]1CCCN1C(=O)[C@@H](NC(=O)[C@H](C)NC(=O)[C@H](Cc1ccc(O)cc1)NC(=O)[C@H](CCC(N)=O)NC(=O)[C@H](CCCCN)NC(=O)[C@H](CCCNC(=N)N)NC(=O)[C@@H]1CCCN1C(=O)[C@H](CCC(=O)O)NC(=O)[C@@H](NC(=O)[C@H](C)N)[C@@H](C)O)[C@@H](C)O)C(=O)N[C@@H](Cc1ccccc1)C(=O)N[C@@H](Cc1c[nH]c2ccccc12)C(=O)N[C@H](C(=O)N[C@@H](CC(=O)O)C(=O)N[C@@H](C)C(=O)N1CCC[C@H]1C(=O)NCC(=O)NCCOCCOCCOCCOCCOCCOCCOCCOCCOCCOCCOCCOCCC(=O)N[C@@H](CS)C(N)=O)[C@@H](C)O | HCC1171 lung carcinoma | cell binding, phage binding, refers to: output/input phage |  | 10 min, 37 °C | relative to: control phage | selectivity ratio | 4.3 ± 1.7
Cc1cc(Oc2nc(N3CC[C@@H](c4ccncc4)C3)ncc2F)[nH]n1 | HT-29 | cell proliferation | colon cancer |  |  | IC50 | 30.2 µM
CC(=O)NCSC[C@H](NC(=O)[C@@H]1CCCN1C(=O)[C@H](C)NC(=O)[C@@H](NC(=O)CNC(=O)[C@@H](NC(=O)[C@H](Cc1c[nH]c2ccccc12)NC(=O)[C@H](C)NC(=O)CNC(=O)[C@H](CO)NC(=O)[C@H](C)NC(=O)[C@@H]1CCCN1C(=O)[C@H](Cc1c[nH]c2ccccc12)NC(=O)[C@H](C)NC(=O)[C@H](C)NC(=O)[C@@H](N)Cc1ccc(O)cc1)[C@@H](C)O)[C@@H](C)O)C(=O)N[C@@H](CO)C(=O)N[C@@H](C)C(=O)NCC(=O)N[C@H](C(=O)NCCOCCOCCOCCOCCOCCOCCOCCOCCOCCOCCOCCOCCC(=O)N[C@@H](CS)C(N)=O)[C@@H](C)O | H2073 lung adenocarcinoma | cell binding, phage binding, refers to: output/input phage |  | 10 min, 37 °C | relative to: control phage | selectivity ratio | 25 ± 3.6
O=C(O)c1ccc(-c2nc(-c3ccccc3Cl)c3sccn23)cc1 | MOLT-4 | CellROX Red |  | 0.1 mM, 48 h |  | ROS level | 4890 RFU
C=CCN1C(=O)C(CC=C)(C(=O)OCC)Oc2cc(F)ccc21 (stereo not shown) | HaCaT | cell growth or viability, CCK-8 |  | 100 µM, 72 h |  | inhibition | 0.92%
O=C1NC2(CC2)COc2ncc(F)cc2[C@H]2COCCN2c2ccn3ncc1c3n2 |  |  | Sprague-Dawley rat, female, ovaries | oral, 10 mg/kg/day, 4 weeks, end of treatment |  | organ-to-brain weight ratio | 6.19 ± 0.86%
CC(C)(C)C(=O)OCOP(=O)(OCOC(=O)C(C)(C)C)C1CCCN(O)C1=O (stereo not shown) | MDA-MB-435 |  |  |  |  | CC50 | > 100 µM

Excerpt of the above:
Compound | tested on | assay | system | setting | how to read | quantity | result
O=C1NC2(CC2)COc2ncc(F)cc2[C@H]2COCCN2c2ccn3ncc1c3n2 |  |  | Sprague-Dawley rat, female, ovaries | oral, 10 mg/kg/day, 4 weeks, end of treatment |  | organ-to-brain weight ratio | 6.19 ± 0.86%
